Results of several laboratories.
Each line is one published result; not all experiments were run side by side.
Target: BDNF/NT-3 growth factors receptor (NTRK2, Homo sapiens, UniProt Q16620)

| Compound | assay | setting | inhibition [%] |
| --- | --- | --- | --- |
| CN1CCN(Cc2ccc(-c3ccc(CO[C@H]4CCC[C@@H]4NC(=O)c4cc(-c5cnn(C)c5)cnc4N)cc3)cc2)CC1 | enzyme activity, inhibitor | 0.1 µM | 0 |
| O=C(Nc1ccc(C(=O)Nc2ccc3[nH]ncc3c2)c(F)c1)Nc1cc(C(F)(F)F)ccc1F | enzyme activity, inhibitor, FRET | 1 µM | 14.7 |
| NC(=O)[C@@H](O)C[C@H]1CCc2sc3ncnc(O[C@H]4CC[C@H](N5CCOCC5)CC4)c3c21 | enzyme activity, inhibitor | 10 µM | 50 |
| C=CC(=O)Nc1cccc(-c2cnc3[nH]cc(C(=O)NC(C)(C)C)c3n2)c1 | enzyme activity, inhibitor | 0.1 µM | 6 |
| COc1ccc(O)cc1-c1c[nH]c2ncc(-c3cncc(C(=O)N(C)C)c3)cc12 | binding, competition with immobilised ligand | 0.2 µM | 5.38 |
| CCn1cc(C(=O)O)c(=O)c2c(N)c(F)c(NC3CCCCC3)cc21 | kinase activity | 0.1 µM, with: ATP at Km | -6.5 |
| O=C(Nc1ccc(F)c(C(=O)Nc2ccc3[nH]ncc3c2)c1)Nc1cc(C(F)(F)F)ccc1F | enzyme activity, inhibitor, FRET | 1 µM | 11.3 |
| COc1ccc(S(=O)(=O)N2CCc3ccccc3C2)cc1N1CCN(C(=O)c2ccc(F)cc2C(F)(F)F)CC1 | enzyme activity, inhibitor | 1 µM | 5.3 |
| NC(=O)C[C@H]1CCc2sc3ncnc(O[C@H]4CC[C@H](N5CCOCC5)CC4)c3c21 | enzyme activity, inhibitor | 10 µM | 25 |
| O=C(CN1CCN(C(=O)c2ccc(C(F)(F)F)cc2)CC1)Nc1cccc(C(=O)Nc2ccc3[nH]ncc3c2)c1 | enzyme activity, inhibitor, FRET | 1 µM | 26 |
| Cc1cccc(O[C@H]2CCC[C@@H](C(C)CNCc3ccncc3)C2)c1 (relative stereo) | cell-free assay | 1 µM | 0 |
| O=C(Nc1ccc(C(=O)Nc2ccc3[nH]ncc3c2)c(Br)c1)Nc1cc(C(F)(F)F)ccc1F | enzyme activity, inhibitor, FRET | 1 µM | 23.1 |
| C=CC(=O)N1Cc2nc(-c3cc(-c4cc(Cl)cnc4Cl)c(F)cc3F)n(-c3ccncn3)c2C1 | cell-free assay | 1 µM | 1.8 |
| O=C(Nc1ccc(C(=O)Nc2ccc3[nH]ncc3c2)cc1F)Nc1cc(C(F)(F)F)ccc1F | enzyme activity, inhibitor, FRET | 1 µM | 14.5 |
| CN1CC[C@@H](COc2cnc(C#N)cc2-c2ccn3nc(NC(=O)C4CC4)cc3c2)C1 | enzyme activity, inhibitor | 1 µM | 10 |

Repeated from above:
| Compound | assay | setting | inhibition [%] |
| --- | --- | --- | --- |
| O=C(Nc1ccc(F)c(C(=O)Nc2ccc3[nH]ncc3c2)c1)Nc1cc(C(F)(F)F)ccc1F | enzyme activity, inhibitor, FRET | 1 µM | 11.3 |
| O=C(Nc1ccc(C(=O)Nc2ccc3[nH]ncc3c2)c(Br)c1)Nc1cc(C(F)(F)F)ccc1F | enzyme activity, inhibitor, FRET | 1 µM | 23.1 |
